Published values of several laboratories.
Each numbered part is a random draw from the data of one study; scales do not carry over between parts.

Study 1
Target: Protein max, full length (MAX, Homo sapiens, UniProt P61244-2, residues 1-151)
Technique: protein-binding microarray
Form: double-stranded DNA, one strand shown
Matrix: in vitro
Tested at: not given
Setting: k-mer, scored over probes, only values ≥0.25
Direction: higher = stronger binding
Endpoint: E-score
Oligonucleotide = ACATGGGG; value = 0.403
Oligonucleotide = CATGCAGG; value = 0.356
Oligonucleotide = CATGCTCA; value = 0.38
Oligonucleotide = ACGTGGTC; value = 0.443
Oligonucleotide = CGTGAGCA; value = 0.294
Oligonucleotide = GAAACACA; value = 0.279
Oligonucleotide = CCCGTGTC; value = 0.298
Oligonucleotide = CCGCACGC; value = 0.399

Study 2
Target: RING finger protein unkempt homolog, zinc fingers 1-6, GST-SBP tag (UNK, Homo sapiens, UniProt Q9C0B0, residues 30-357)
Technique: RNA Bind-n-Seq
Form: RNA
Matrix: in vitro
Tested at: not given
Setting: RNA with constant flanks, ends assumed
Relative to: input RNA pool
Direction: higher = stronger binding
Endpoint: bound/input enrichment
All sequences stand within: GGGAGUUCUACAGUCCGACGAUC … CAACAGAGGAUUGAGCAUCA
Construct (chain): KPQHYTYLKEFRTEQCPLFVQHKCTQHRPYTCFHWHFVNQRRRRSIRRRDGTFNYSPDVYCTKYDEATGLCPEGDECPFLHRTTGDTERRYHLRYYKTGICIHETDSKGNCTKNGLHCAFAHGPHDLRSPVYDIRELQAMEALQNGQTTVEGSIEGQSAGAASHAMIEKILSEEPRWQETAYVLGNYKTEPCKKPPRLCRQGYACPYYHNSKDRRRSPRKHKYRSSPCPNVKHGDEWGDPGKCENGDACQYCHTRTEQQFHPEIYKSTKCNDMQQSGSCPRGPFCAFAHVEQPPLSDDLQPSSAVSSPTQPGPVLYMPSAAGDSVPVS
Oligonucleotide = CUUUCUGUCCCCUCCUAUACAGUUUCCGUUUCUUUUUACACUUGCUUGCCCAGCCGUCUGCCGUACACCAGAUUCAGGUGUUUGCGCUGUGUAGAAUUUGUGUGCACAGAUACGUGCUUG; value = 0.299 ratio
Oligonucleotide = UACGACUACUCGCCCUAUGGCUAUUACGGCUACGGCCCCGGCUACGACUACAGUCAGGGCCGUACAAACUACGGCAAGAGCCAGCGACGUGGUGGCCAUCAGAAUAACUACAAGCCAUAC; value = 0.0835 ratio
Oligonucleotide = UACGAGCGGGGUGUCGCAGUCUUGUGCACAGAGUAAACUUUUCUAGCUGCCCCUUUCUGUAACCGUGAAAGUUGGUAUUUAACAUUUAUUCAUUUUUAAAAUAUUUGGAAGGUCUGAGCU; value = 8.45 ratio
Oligonucleotide = UUCUUAAUUUUUCUUUCUUACAAAAACUGAUUUUUCCCAUAAAUAUUUUUACUUCAGAGGACCCGGACCAUUUUGUUUUGGGCCCUUCUGCUGAAAAUUUGUCUCGUUUAAGAGGCAGCU; value = 2.31 ratio
Oligonucleotide = GUUGAUGCAGACUCUCUUGCCGAGGUAGAUGAUGGAAUGGCUUCCCGUCAGGGUUCUCCCAGCCGAACCUUUGGUCUGAGUCUGUCUACGGAUUCUUCGGCAGUAGGGGCUGUUGCUUCU; value = 0.363 ratio
Oligonucleotide = CCCGCGCCGCCUCCUCCCACCCUGAGCAGAGCCACCGAGGAUGAUAAACACCCAGGACAGCCGUAUUUUGCCGUUGAGUAAGUGUCCCCAGCUCCAGUGCUGCAGGCACAUUGUUCCAGG; value = 0.184 ratio
Oligonucleotide = GACAUUAAAAAUUUUCUGUAUGCCUGGUGUGGCAAAAGGAAGAUGACUCCAGCCUAUGAAAUCCGAGCAGUAGGAAACAAAAACAGACAGAAAUUCAUGUGUGAGGUUCGAGUAGAAGGG; value = 0.602 ratio
Oligonucleotide = ACGCAUGGAAUCUUCUCUGGCCCUGCCAUUUCUCGCAUCAACAAUGCAUGCUUUGAAGCAGCCGCCGUUACCAAUACCAUACCUCAGGAAGACAAGAUGAAACACUGCUCCAAAAUACAG; value = 0.116 ratio

Study 3
Target: Fragile X messenger ribonucleoprotein 1, C-terminal low-complexity region (Fmr1, Mus musculus, UniProt P35922)
Technique: RNA Bind-n-Seq
Form: RNA
Matrix: in vitro
Tested at: 200 nM
Setting: whole 134-nt RNA, ends assumed
Added: 150 mM KCl
Relative to: input library
Direction: higher = stronger binding
Endpoint: log2 enrichment
All sequences stand within: GGGAGUUCUACAGUCCGACGAUC … UGGAAUUCUCGGGUGUCAAGG
Oligonucleotide = UCAAGUCCUGUGCUACACAUCGUAUGUACCGAAUCGGUGGAAAAAAAGGAAAGGAAAGUAUUAUGUUACGCCGUUCGGAUCUGCACUUCC; value = -0.54
Oligonucleotide = CAAGUCCUGUGCUACACAUCGUAUGUACCGAAUCGGGUUUUUUUGGGUGGGAGGGAAAGUAUUAUGUUACGCCGUUCGGAUCUGCACUUC; value = 1.07
Oligonucleotide = AGUCCUGUGCUACACAUCGUAUGUACCGAAUCGGGGUUUUUUUGGGGUGGGGAGGGGAAAGUAUUAUGUUACGCCGUUCGGAUCUGCACU; value = 1
Oligonucleotide = UGUGACAGGAGAGCGCUUGAAGAGCAAUGUGACGAGGACCAUCAGACACCGAGGGAUGGAGAGACAUCCCACAGGGCCCAGAUUCAGCAG; value = 0.0987
Oligonucleotide = UGUGGGUCCUCCUGCACCUGGUGCUGGCCUUCCUGUCCCUGCGCUCUUUGACAGCCUCCUGACCUGUAGGACGAGGGAUUCCUUGUUCUU; value = -0.718
Oligonucleotide = UGGCCCUGGUGGCAUGCUGGGAGGAAGAGGUGGCCUCAUGGAUCGUGGUGGUCCCGGUGGAAUGUUCAGAGGUGGCCGUGGUGGAGACAG; value = -0.0671
Oligonucleotide = UGGGAGGUGGAUUUUGUUUAUUUUUUUAUCUCAUUUCCAGGGGUGGGAAUUUUUUUUUAAUAUGUGUCAUGAAUAAAGUUGUUUUUGAAA; value = 0.118
Oligonucleotide = ACCAUGCAGGUGGGCAUCUUUGGGAAGUGGGGCAAGGGGGGGAUAGGGAGGGGGGUAACACUUUGGGAACAGGUGGUCCCAGGUCGUAUC; value = 0.652

Further values, each from its own experiment
Structure (SMILES) = CCc1ccc(-c2cn(Cc3ncc[nH]3)nn2)nc1; system = human, microsomes or S9; setting = 2 µM, 0.5 h; endpoint = remaining compound; value = 55.8%

Some of these lines once more (study 2):
Oligonucleotide = UACGAGCGGGGUGUCGCAGUCUUGUGCACAGAGUAAACUUUUCUAGCUGCCCCUUUCUGUAACCGUGAAAGUUGGUAUUUAACAUUUAUUCAUUUUUAAAAUAUUUGGAAGGUCUGAGCU; value = 8.45 ratio
Oligonucleotide = UUCUUAAUUUUUCUUUCUUACAAAAACUGAUUUUUCCCAUAAAUAUUUUUACUUCAGAGGACCCGGACCAUUUUGUUUUGGGCCCUUCUGCUGAAAAUUUGUCUCGUUUAAGAGGCAGCU; value = 2.31 ratio
